Assay results pooled from the literature.
Compare with care: the assays were run in different laboratories. ± gives the spread as reported.
Organism: HIV-1

SMILES	assay	test system	setting	scale	quantity	value
CC(=O)OCC1OC(n2cnc3c(Cl)nc(Cl)nc32)C2CC=CCC12 (mixture of isomers)	viral replication	human PBM cells, LAI			EC90	62400 nM
C=C(C)C1CCc2c(c(C)cc(O)c(=O)c2O)C1 (stereo not shown)			concentration not given		anti-HIV activity	inactive
COc1cc2nc(NC3CCN(Cc4ccc(S(N)(=O)=O)cc4)CC3)nc(Oc3c(C)cc(C#N)cc3C)c2cc1OC	viral replication, luciferase reporter	TZM-bl, NL4-3 wild type			EC50	9.62 ± 3.15 nM
CC(=O)N[C@@H](CC(C)C)C(=O)N[C@@H](CS)C(=O)N[C@@H](CC(=O)O)C(=O)N[C@@H](CS)C(=O)N1CCC[C@H]1C(=O)N[C@@H](CC(N)=O)C(=O)NCC(=O)N1CCC[C@H]1C(=O)N[C@@H](Cc1c[nH]c2ccccc12)C(=O)N[C@H](C(=O)N[C@@H](Cc1c[nH]c2ccccc12)C(=O)N[C@H](C(=O)N1CCC[C@H]1C(=O)N[C@@H](C)C(=O)N[C@@H](Cc1ccccc1)C(=O)N[C@@H](CS)C(=O)N[C@@H](CCC(N)=O)C(=O)N[C@@H](C)C(=O)N[C@H](C(=O)NCC(=O)O)C(C)C)C(C)C)C(C)C	viral replication, inhibitor, SEAP reporter	CEMx174 SEAP reporter, NL4-3	3 days		IC50	2630 nM
COc1ccc(-n2c(SCCF)nnc2[C@H](Cc2ccccc2)NC(=O)Cc2c(C)[nH]c3ccccc23)cc1		MT-4, wild type		baseline: CC50 over EC50	selectivity index	20
Cc1cc(/C=C/C#N)cc(C)c1Oc1nc(NC2CCN(Cc3ccc(S(N)(=O)=O)cc3)CC2)nc2ccccc12	viral replication, luciferase reporter	TZM-bl, NL4-3 wild type			EC50	8.44 ± 3.17 nM
CC(=O)NCCN(CCC(=O)NCCN(CCC(=O)NCCN(CCC(=O)NCCC(N)=O)C(=O)[C@@H](N)Cc1ccccc1)C(=O)[C@@H](N)CCCNC(=N)N)C(=O)[C@@H](N)Cc1ccccc1		PBMC, LAI		baseline: CC50 over EC50	selectivity index	> 1.2
Cc1cc(Oc2c(C(F)(F)F)ccn(Cc3n[nH]c(=O)n3C)c2=O)c2cccc(Cl)c2n1		MT4, wild type		baseline: CC50 over EC50	selectivity index	< 1
COc1ccc(S(=O)(=O)O)cc1N=Nc1c(S(=O)(=O)O)cc2cc(NCc3nc(CNc4cc(C)c(N=Nc5cc(S(=O)(=O)O)cc6cc(S(=O)(=O)O)cc(O)c56)cc4OC)nc(Nc4ccccc4)n3)ccc2c1O	cell-cell fusion	H9/HIV-1 IIIB and MT2 cells			IC50	5840 nM
CC(=O)N[C@H](CCCNC(=N)N)C(=O)N[C@H](CCCNC(=N)N)C(=O)N[C@H](CCCNC(=N)N)C(=O)N[C@H](CCCNC(=N)N)C(=O)N[C@H](CCCNC(=N)N)C(=O)N[C@H](CCCNC(=N)N)C(=O)N[C@H](CCCNC(=N)N)C(=O)N[C@H](CCCNC(=N)N)C(=O)N[C@H](CCCNC(=N)N)C(N)=O	viral replication, item: p24	MT-2, NL4-3	concentration not given		inhibition	> 95%
Cc1cc(C#N)cc(C)c1Oc1nc(NC2CCN(Cc3ccncc3)CC2)nc2ccccc12	viral replication, luciferase reporter	TZM-bl, NL4-3 wild type			EC50	2.04 ± 0.71 nM
NCCCC[C@H](NC(=O)[C@H](CC(N)=O)NC(=O)[C@H](CCCCNC(=O)[C@H](Cc1ccc(B(O)O)cc1)NC(=O)[C@H](Cc1ccc(O)cc1)NC(=O)[C@@H](N)Cc1ccc(B(O)O)cc1)NC(=O)[C@H](Cc1ccc(B(O)O)cc1)NC(=O)[C@H](Cc1ccc(O)cc1)NC(=O)[C@@H](N)Cc1ccc(B(O)O)cc1)C(=O)N[C@@H](CO)C(=O)N[C@@H](Cc1ccc(O)cc1)C(N)=O	viral replication	U87-CD4/CXCR4, NL4-3			IC50	~5000 nM
Cc1cc(C#N)cc(C)c1Oc1nc(NC2CCN(Cc3ccc(Cl)cc3)CC2)nc2ccccc12	viral replication, luciferase reporter	TZM-bl, NL4-3 wild type			EC50	29 ± 7.8 nM
COc1ccc2c(c1)OCCCC=CCCCCN(CC(O)C(Cc1ccccc1)NC(=O)OC1COC3OCCC13)S2(=O)=O (mixture of isomers)	viral cytopathic effect, MTT	MT-2, LAI			IC50	4 nM
Cc1cc(C#N)cc(C)c1Oc1nc(NC2CCN(Cc3ccc(S(N)(=O)=O)cc3)CC2)nc2ccccc12	viral replication, luciferase reporter	TZM-bl, NL4-3 wild type			EC50	1.62 ± 0.39 nM
COc1ccc(-n2c(SCc3cccnc3)nnc2[C@H](Cc2ccccc2)NC(=O)Cc2c(C)[nH]c3ccccc23)cc1		MT-4, wild type		baseline: CC50 over EC50	selectivity index	9
COc1cc2nc(NC3CCN(Cc4ccc(C(N)=O)cc4)CC3)nc(Oc3c(C)cc(C#N)cc3C)c2cc1OC	viral replication, luciferase reporter	TZM-bl, NL4-3 wild type			EC50	1.16 ± 0.42 nM
COc1ccc(-n2c(SCc3ccc(S(N)(=O)=O)cc3)nnc2[C@H](Cc2ccccc2)NC(=O)Cc2c(C)[nH]c3ccccc23)cc1		MT-4, wild type		baseline: CC50 over EC50	selectivity index	> 76
CC(=O)OCC1OC(n2cc(C=CBr)c(=O)[nH]c2=O)C2CC=CCC12 (mixture of isomers)	viral replication	human PBM cells, LAI			EC90	> 100000 nM
CC(=O)NCCN(CC(=O)NCCN(CC(=O)NCCN(CC(=O)NCCC(N)=O)C(=O)C[C@@H](N)CCCNC(=N)N)C(=O)C[C@@H](N)CCCNC(=N)N)C(=O)C[C@@H](N)Cc1ccccc1		PBMC, LAI		baseline: CC50 over EC50	selectivity index	> 17
CC(=O)OCC1OC(n2cc(C)c(=O)[nH]c2=O)C2CC=CCC12 (mixture of isomers)	viral replication	human PBM cells, LAI			EC90	> 100000 nM
CC(=O)NCCN(CC(=O)NCCN(CC(=O)NCCN(CC(=O)NCCC(N)=O)C(=O)C[C@@H](N)CCCNC(=N)N)C(=O)C[C@@H](N)CCCCN)C(=O)C[C@@H](N)Cc1ccccc1		PBMC, LAI		baseline: CC50 over EC50	selectivity index	> 4.5
Cc1cc(C#N)cc(C)c1Oc1nc(NC2CCN(Cc3ccc(F)cc3)CC2)nc2ccccc12	viral replication, luciferase reporter	TZM-bl, NL4-3 wild type			EC50	29.3 ± 7.43 nM
CC(=O)NCCN(CC(=O)NCCN(CC(=O)NCCN(CC(=O)NCCC(N)=O)C(=O)C[C@@H](N)Cc1ccccc1)C(=O)C[C@@H](N)Cc1ccccc1)C(=O)C[C@@H](N)CCCNC(=N)N		PBMC, LAI		baseline: CC50 over EC50	selectivity index	> 12
Nc1nc(Cl)nc2c1ncn2C1OC(CO)C2CC=CCC21 (mixture of isomers)	viral replication	human PBM cells, LAI			EC90	> 100000 nM

Excerpt of the above:
SMILES	assay	test system	setting	scale	quantity	value
Nc1nc(Cl)nc2c1ncn2C1OC(CO)C2CC=CCC21 (mixture of isomers)	viral replication	human PBM cells, LAI			EC90	> 100000 nM
Cc1cc(/C=C/C#N)cc(C)c1Oc1nc(NC2CCN(Cc3ccc(S(N)(=O)=O)cc3)CC2)nc2ccccc12	viral replication, luciferase reporter	TZM-bl, NL4-3 wild type			EC50	8.44 ± 3.17 nM
